# Experimental data gathered from unrelated publications.
# Parts stem from different laboratories: compare values within a part only.
# Sequence of UniProt Q9UJQ4 (whole entry, looked up): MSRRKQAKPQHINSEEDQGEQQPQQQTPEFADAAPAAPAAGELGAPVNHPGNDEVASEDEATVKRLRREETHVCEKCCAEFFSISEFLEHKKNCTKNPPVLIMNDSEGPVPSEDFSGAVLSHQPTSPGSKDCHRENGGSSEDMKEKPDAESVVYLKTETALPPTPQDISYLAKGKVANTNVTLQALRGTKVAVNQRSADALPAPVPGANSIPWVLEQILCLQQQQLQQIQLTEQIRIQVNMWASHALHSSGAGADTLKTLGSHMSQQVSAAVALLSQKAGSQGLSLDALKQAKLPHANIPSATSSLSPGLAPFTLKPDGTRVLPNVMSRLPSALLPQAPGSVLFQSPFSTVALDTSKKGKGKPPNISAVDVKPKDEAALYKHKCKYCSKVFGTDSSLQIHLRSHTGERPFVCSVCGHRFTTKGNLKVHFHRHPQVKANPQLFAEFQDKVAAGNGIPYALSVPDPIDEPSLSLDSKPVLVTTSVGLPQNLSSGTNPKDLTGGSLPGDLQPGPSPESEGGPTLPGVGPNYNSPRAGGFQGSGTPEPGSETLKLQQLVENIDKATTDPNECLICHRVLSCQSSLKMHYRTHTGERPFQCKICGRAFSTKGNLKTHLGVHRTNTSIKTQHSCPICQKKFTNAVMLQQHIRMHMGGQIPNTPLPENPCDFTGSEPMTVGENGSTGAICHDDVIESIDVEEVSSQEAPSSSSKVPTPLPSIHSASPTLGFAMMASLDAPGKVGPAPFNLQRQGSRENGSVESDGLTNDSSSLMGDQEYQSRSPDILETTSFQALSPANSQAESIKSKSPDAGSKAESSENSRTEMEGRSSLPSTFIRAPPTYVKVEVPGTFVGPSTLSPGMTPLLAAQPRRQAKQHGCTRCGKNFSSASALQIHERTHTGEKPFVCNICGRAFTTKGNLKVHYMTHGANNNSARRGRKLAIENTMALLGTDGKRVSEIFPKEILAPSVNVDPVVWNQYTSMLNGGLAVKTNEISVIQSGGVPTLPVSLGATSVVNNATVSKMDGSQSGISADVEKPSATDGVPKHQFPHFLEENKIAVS
# Sequence of UniProt Q92985 (whole entry, unmodified, looked up): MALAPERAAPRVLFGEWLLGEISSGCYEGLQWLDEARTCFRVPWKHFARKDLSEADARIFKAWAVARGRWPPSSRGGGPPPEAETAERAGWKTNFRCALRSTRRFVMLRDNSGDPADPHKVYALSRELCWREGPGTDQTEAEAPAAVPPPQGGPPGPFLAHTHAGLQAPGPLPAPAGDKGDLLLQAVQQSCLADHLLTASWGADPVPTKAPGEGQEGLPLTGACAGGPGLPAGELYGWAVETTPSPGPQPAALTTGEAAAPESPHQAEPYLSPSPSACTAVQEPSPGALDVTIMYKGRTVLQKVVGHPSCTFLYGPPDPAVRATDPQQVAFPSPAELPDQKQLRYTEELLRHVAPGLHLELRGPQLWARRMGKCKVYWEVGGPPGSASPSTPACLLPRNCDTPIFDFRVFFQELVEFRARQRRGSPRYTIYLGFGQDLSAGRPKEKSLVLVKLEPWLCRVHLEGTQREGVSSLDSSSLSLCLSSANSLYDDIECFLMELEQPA

# Block 1
# Target: Histone acetyltransferase KAT6A, winged helix 1, GST fusion (KAT6A, Homo sapiens, UniProt Q92794, residues 1-85)
# Method: protein binding microarray
# Form: double-stranded DNA, one strand shown
# Sample: in vitro
# Concentration: not given
# Setting: 8-mer, flanks averaged, mean of 2 arrays, mostly near background
# Relative to: not given
# Reading: higher = stronger binding
# Construct (chain): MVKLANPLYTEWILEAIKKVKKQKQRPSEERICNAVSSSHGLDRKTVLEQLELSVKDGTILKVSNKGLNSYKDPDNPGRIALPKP
Strand,E-score
ATGGTGCC,0.0161
CTTCCGTA,0.187
GTCACTTA,-0.0905

# Mixed results
Substance,target,assay,system,conditions,how to read,endpoint,value
UUCCGGU,"PABPC1L2, full length, GST fusion (mouse, UniProt A0ABA7IW68)",RNAcompete,"RNA, in vitro","20 nM, 7-mer, probes averaged, single round","relative to: mean of 7-mers, higher = stronger binding",7-mer Z-score,-0.293
GCCTAGCACTTAGGTATCGAACTGGGTTAGTGCTAGGTCTTGATTCGCTTGACGCTGCTG,"Interferon regulatory factor 5, full length, phosphomimetic (IRF5, Homo sapiens, UniProt Q13568-2, residues 1-514, K96S/S451D/S453D/S456D/S462D)",protein-binding microarray,"double-stranded DNA, one strand shown, in vitro","250 nM, 60-bp whole probe, with: salmon DNA 0.4 mg/ml","relative to: random background probes, higher = stronger binding",log fluorescence,1.16 z-score
"PhoQ, residues 284 288 289 292 302 303 NLGVHL","PhoP, residues 12 14 15 18 19 NYFTV (Escherichia coli, UniProt P23836)","Sort-seq, refers to: YFP reporter",E. coli,"PhoQ-PhoP variant library, with: 10 µM Mg2+","relative to: high Mg2+ state, higher = stronger signaling",fold induction,4.59
ACAACCCA,"Sal-like protein 4, full length isoform A (SALL4, Homo sapiens, UniProt Q9UJQ4, residues 1-1053)",universal PBM,"double-stranded DNA, one strand shown, in vitro","600 nM, 8-mer, flanks averaged, mean of replicates",higher = stronger binding,E-score,-0.0453
GCCTAGCACTTAGGACTGGGGACTGAGTTAGTGCTAGTCTTGATTCGCTTGACGCTGCTG,"Interferon regulatory factor 7, full length, phosphomimetic (IRF7, Homo sapiens, UniProt Q92985, residues 1-503, S471D/S472D/S475D/S476D/S477D/S483D/S484D/S487D)",protein-binding microarray,"double-stranded DNA, one strand shown, in vitro","2200 nM top, 60-bp whole probe, with: salmon DNA 0.4 mg/ml","relative to: random background probes, higher = stronger binding",fitted relative affinity,-0.786 z-score

# Some of these lines once more (mixed results):
Substance,target,assay,system,conditions,how to read,endpoint,value
ACAACCCA,"Sal-like protein 4, full length isoform A (SALL4, Homo sapiens, UniProt Q9UJQ4, residues 1-1053)",universal PBM,"double-stranded DNA, one strand shown, in vitro","600 nM, 8-mer, flanks averaged, mean of replicates",higher = stronger binding,E-score,-0.0453
